Assay results gathered from unrelated publications.
Parts stem from different laboratories: compare values within a part only. Changes are numbered by the printed parent chain.

Series 1
Target: Centromere-binding protein 1, full length, N-terminal tag (CBF1, Saccharomyces cerevisiae, UniProt P17106, residues 1-351)
Chain of UniProt P17106 (whole entry, looked up): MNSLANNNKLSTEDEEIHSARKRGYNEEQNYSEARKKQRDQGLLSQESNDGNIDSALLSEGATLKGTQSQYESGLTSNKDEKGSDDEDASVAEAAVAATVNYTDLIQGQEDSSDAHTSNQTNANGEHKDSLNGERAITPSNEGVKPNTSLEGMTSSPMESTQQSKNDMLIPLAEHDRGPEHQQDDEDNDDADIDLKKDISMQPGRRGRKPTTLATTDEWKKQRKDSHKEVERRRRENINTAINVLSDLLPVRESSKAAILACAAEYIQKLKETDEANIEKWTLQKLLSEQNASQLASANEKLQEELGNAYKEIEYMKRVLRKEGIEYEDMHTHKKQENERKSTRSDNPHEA
Technique: protein-binding microarray
Molecule type: double-stranded DNA, one strand shown
Sample: in vitro
Tested at: 0.8 µM
Setting: whole 60-bp probe, no competitor
Direction: higher = stronger binding
Quantity: fluorescence intensity
All sequences stand within: … GTCTTGATTCGCTTGACGCTGCTG
CTAGTAACGCCGGCTGACGTGGACGATTTATCATTC: 541 a.u.
CCTAACTACTATATTAACATCAGATAGCTTCGTACA: 523 a.u.
GAAGAGTGCAGTGTGCACGACAGGGACCGCTAGTAG: 521 a.u.
TGTACGAAGCTATGTGATTTTGATATAGTAGTTAGG: 510 a.u.
GAACTAGTGTCGTTGTGCGTGATTTTTCACTTTTAG: 577 a.u.
GAAGCAGTTAATCTAAACCTGATGCCCACAAAGTAG: 550 a.u.
GAAAAATAGAAGCGACACGTTACATATTAAAAGTAG: 801 a.u.
GAAGCCATTATCATTTAGGTGACGCCTTGTTCTTAG: 512 a.u.
CTATATATTTTGTTACGCGTGCATTTTCTTGTTTTC: 609 a.u.
CTAGATAATATACTGGTGGTGAATGACAGCAAATTC: 697 a.u.
CCTAACTACTATACTGGTGAAATATAGCTTCGTACA: 538 a.u.
CTATAGTAAAGGAGAGACGTGACAGTTGGATGTTTC: 593 a.u.
GAACAAGAAAAGTTGAACGTGTCGTACGTATAATAG: 556 a.u.

Series 2
Target: Interferon regulatory factor 5, full length, phosphomimetic (IRF5, Homo sapiens, UniProt Q13568-2, residues 1-514, K96S/S451D/S453D/S456D/S462D)
Technique: protein-binding microarray
Molecule type: double-stranded DNA, one strand shown
Sample: in vitro
Tested at: 250 nM
Setting: 60-bp whole probe
With: salmon DNA 0.4 mg/ml
Reference: random background probes
Direction: higher = stronger binding
Quantity: log fluorescence
All sequences stand within: GCCTAGCAC … GTCTTGATTCGCTTGACGCTGCTG
TCAACCATCTAGTTCTGACTGTGCTAG: 0.0781 z-score
GACGTTTTCGGTCTCGGGACGTGCTAG: 8.32 z-score
ATATGTATATATGTGTATATGTGCTAG: 0.557 z-score
ACCATTTTGTTTTTCATTATGTGCTAG: 1.68 z-score
TTAGGTCTTCTTTTCCTTTAGTGCTAG: 0.501 z-score
AATTAGGTTTCACTTTCCAAAGTGCTA: 6.99 z-score
GACTGTATCGGACTGGGGACGTGCTAG: 0.929 z-score
GACGAACTGTGACTGGAGACGTGCTAG: -0.468 z-score
TTAGATATTGGGTATCGATTAGTGCTA: 3.83 z-score
GACGGTATCGGGTATCGGGAAGTGCTA: 4 z-score

Series 3
Target: ABI1, truncated, D143A, DHFR fusion (Arabidopsis thaliana)
Technique: DHFR PCA, deep sequencing
Sample: yeast
Setting: methotrexate growth selection, single substitutions
With: (+)-ABA 0.0091 µM
Reference: wild-type fitted maximum
Direction: higher = stronger binding
Quantity: relative binding score
Starting sequence: PYL1, truncated, DHFR fusion (Arabidopsis thaliana); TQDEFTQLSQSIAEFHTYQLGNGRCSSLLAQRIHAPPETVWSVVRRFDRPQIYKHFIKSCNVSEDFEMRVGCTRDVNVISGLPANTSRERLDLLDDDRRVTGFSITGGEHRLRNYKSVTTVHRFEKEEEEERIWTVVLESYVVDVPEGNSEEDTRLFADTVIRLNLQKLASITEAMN; partner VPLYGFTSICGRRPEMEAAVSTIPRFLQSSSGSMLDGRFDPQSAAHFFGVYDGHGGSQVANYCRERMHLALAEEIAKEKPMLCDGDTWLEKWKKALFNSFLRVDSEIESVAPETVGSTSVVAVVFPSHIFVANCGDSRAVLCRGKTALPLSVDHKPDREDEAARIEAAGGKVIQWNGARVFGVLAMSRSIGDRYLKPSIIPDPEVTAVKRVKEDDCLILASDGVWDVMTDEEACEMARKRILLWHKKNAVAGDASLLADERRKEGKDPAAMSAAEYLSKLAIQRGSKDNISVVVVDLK
T101R: -7.12%
G107E: 14%
Q7G: 24.6%
L20G: 25.4%
H34S: 19.9%
T120I: -8.42%
G102R: -0.112%

Further values, each from its own experiment
PhoQ, residues 284 288 289 292 302 303 QWQEDG — fold induction (PhoP, residues 12 14 15 18 19 STWGI (Escherichia coli, UniProt P23836); Sort-seq, refers to: YFP reporter; E. coli; PhoQ-PhoP variant library, with: 10 µM Mg2+; reference: high Mg2+ state, higher = stronger signaling): 1.17

Some of these lines once more (series 1):
TGTACGAAGCTATGTGATTTTGATATAGTAGTTAGG: 510 a.u.
GAACTAGTGTCGTTGTGCGTGATTTTTCACTTTTAG: 577 a.u.
GAAGCAGTTAATCTAAACCTGATGCCCACAAAGTAG: 550 a.u.
